Assay results collected from several papers.
A part holds a random share of what one study measured. Changes are numbered by the printed parent chain.

Sample 1
Target: CCNB2, cyclin fold, Cln2 fusion (human)
Method: yeast growth competition, sequencing
Medium: yeast
Setting: strong parent motif
Reference: not given
Reading: higher = stronger binding
Starting sequence: PKMYT1 docking peptide (human); SFEPRNLLSLFED
Change | normalised enrichment score
SFEPRNILSLFED [L7I] | -0.395
SFEPRNLLSLHED [F11H] | -0.344
SFEPRNLLSLKED [F11K] | -0.118
SFEPRNLLSMFED [L10M] | 1.24
SFEPRNLLSLFAD [E12A] | 0.327
SFEPYNLLSLFED [R5Y] | 0.169
SIEPRNLLSLFED [F2I] | 1.54
SEEPRNLLSLFED [F2E] | -0.601
SFYPRNLLSLFED [E3Y] | 1.91
SFFPRNLLSLFED [E3F] | 0.947
SFEPRNLLSLFPD [E12P] | -0.615
SFEGRNLLSLFED [P4G] | 0.136
SFEPRNLLSLFLD [E12L] | 0.0542
SYEPRNLLSLFED [F2Y] | -0.105

Sample 2
Target: Interferon regulatory factor 5, full length, phosphomimetic (IRF5, Homo sapiens, UniProt Q13568-2, residues 1-514, K96S/S451D/S453D/S456D/S462D)
Method: protein-binding microarray
Form: double-stranded DNA, one strand shown
Medium: in vitro
Tested at: 250 nM
Setting: 60-bp whole probe
With: salmon DNA 0.4 mg/ml
Reference: random background probes
Reading: higher = stronger binding
All sequences stand within: GCCTAGCAC … GTCTTGATTCGCTTGACGCTGCTG
Sequence | log fluorescence [z-score]
GACGGTATCGCGTATCGGGACGTGCTA | 0.987
TACGGTTTCCTACTGCTGACGTGCTAG | 0.64
GACGGAATCGGGACTGGGGACGTGCTA | -0.155
CTAAAAATCCCATTAAATTTGTGCTAG | 0.299
ATTTGTTTCCATTTTCTGAAGTGCTAG | 2.74
TTAGGTATCGGACTGTGTTAGTGCTAG | 1.43
GACGGTTTCGGAATGGGGACGTGCTAG | 5.8
TCATCTTTCACTGCTGCACTGTGCTAG | 3.02
TAATATATATATTGTTAGTGTGTGCTA | 0.657
TTAGGTACCCTTATCCTTTAGTGCTAG | -0.343
TCATTTTTTGGTTTCTGACTGTGCTAG | 2.25
GCCGGTATCGGTTTCGGGACGTGCTAG | 9.18
TTAGGTTTCGGGTTTTGGTTAGTGCTA | 8.11

Sample 3
Target: Sal-like protein 4, full length isoform A (SALL4, Homo sapiens, UniProt Q9UJQ4, residues 1-1053)
Chain of UniProt Q9UJQ4 (whole entry, looked up): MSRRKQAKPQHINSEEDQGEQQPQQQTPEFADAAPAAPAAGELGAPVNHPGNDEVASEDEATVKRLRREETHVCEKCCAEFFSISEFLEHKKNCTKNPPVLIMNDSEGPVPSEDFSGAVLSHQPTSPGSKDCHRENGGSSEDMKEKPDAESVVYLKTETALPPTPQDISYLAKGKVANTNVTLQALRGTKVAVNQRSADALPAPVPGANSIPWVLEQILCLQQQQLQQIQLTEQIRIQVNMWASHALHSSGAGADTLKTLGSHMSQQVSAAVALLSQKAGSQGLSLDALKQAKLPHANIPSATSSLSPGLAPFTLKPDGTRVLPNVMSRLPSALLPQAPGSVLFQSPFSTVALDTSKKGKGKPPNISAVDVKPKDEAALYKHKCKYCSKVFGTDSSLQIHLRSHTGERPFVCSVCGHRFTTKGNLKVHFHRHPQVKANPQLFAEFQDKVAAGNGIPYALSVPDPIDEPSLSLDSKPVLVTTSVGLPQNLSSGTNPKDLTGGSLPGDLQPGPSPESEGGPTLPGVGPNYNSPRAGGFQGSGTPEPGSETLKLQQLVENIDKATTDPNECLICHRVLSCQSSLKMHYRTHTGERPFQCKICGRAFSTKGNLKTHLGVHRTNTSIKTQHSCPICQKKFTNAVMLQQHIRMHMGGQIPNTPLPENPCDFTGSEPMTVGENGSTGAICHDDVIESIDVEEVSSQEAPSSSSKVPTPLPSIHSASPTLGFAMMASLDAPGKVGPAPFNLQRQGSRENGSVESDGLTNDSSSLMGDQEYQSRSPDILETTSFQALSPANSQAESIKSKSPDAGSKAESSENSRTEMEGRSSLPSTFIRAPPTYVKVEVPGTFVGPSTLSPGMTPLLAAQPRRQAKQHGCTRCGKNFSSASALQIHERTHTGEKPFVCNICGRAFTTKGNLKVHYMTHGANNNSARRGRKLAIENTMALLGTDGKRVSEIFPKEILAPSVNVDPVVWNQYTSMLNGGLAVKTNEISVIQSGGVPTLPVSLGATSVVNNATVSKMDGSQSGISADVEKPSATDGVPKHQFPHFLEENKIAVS
Method: universal PBM
Form: double-stranded DNA, one strand shown
Medium: in vitro
Tested at: 600 nM
Setting: 8-mer, flanks averaged, mean of replicates
Reading: higher = stronger binding
Sequence | E-score
CTTTCCAA | 0.0869
AACGAATG | 0.0437
GCTCGTTA | -0.0547
CGTGGTAC | -0.134
ACCCTATG | 0.0221
ATTGTCGC | 0.105
CGCGATCA | -0.0607
GGATTCTA | -0.0661
GAGATTCA | 0.000515
GTCCTTCA | 0.0332
CTATCATC | 0.207
CGAGACCA | -0.0721
GCTGAACC | -0.279

Sample 4
Substance: PhoQ, residues 284 288 289 292 302 303 TASMAF
Method: Sort-seq
Item: YFP reporter
Medium: E. coli
Setting: PhoQ-PhoP variant library
With: 10 µM Mg2+
Reference: high Mg2+ state
Reading: higher = stronger signaling
target | fold induction
PhoP, residues 12 14 15 18 19 TQALL (Escherichia coli, UniProt P23836) | 6.96
PhoP, residues 12 14 15 18 19 NYFRM (Escherichia coli, UniProt P23836) | 10.9
PhoP, residues 12 14 15 18 19 QYFSL (Escherichia coli, UniProt P23836) | 14.4

Excerpt of the above (sample 1):
Change | normalised enrichment score
SYEPRNLLSLFED [F2Y] | -0.105
SIEPRNLLSLFED [F2I] | 1.54
SFEPYNLLSLFED [R5Y] | 0.169
SFEPRNLLSLFLD [E12L] | 0.0542
SFEPRNLLSLKED [F11K] | -0.118
SFEGRNLLSLFED [P4G] | 0.136
